Measured values pooled from the literature.
Several values in a cell are separate wells, animals, samples, runs or records.
Target: SRSF protein kinase 1 (SRPK1, Homo sapiens, UniProt Q96SB4)
UniProt Q96SB4, sequence (whole entry, looked up): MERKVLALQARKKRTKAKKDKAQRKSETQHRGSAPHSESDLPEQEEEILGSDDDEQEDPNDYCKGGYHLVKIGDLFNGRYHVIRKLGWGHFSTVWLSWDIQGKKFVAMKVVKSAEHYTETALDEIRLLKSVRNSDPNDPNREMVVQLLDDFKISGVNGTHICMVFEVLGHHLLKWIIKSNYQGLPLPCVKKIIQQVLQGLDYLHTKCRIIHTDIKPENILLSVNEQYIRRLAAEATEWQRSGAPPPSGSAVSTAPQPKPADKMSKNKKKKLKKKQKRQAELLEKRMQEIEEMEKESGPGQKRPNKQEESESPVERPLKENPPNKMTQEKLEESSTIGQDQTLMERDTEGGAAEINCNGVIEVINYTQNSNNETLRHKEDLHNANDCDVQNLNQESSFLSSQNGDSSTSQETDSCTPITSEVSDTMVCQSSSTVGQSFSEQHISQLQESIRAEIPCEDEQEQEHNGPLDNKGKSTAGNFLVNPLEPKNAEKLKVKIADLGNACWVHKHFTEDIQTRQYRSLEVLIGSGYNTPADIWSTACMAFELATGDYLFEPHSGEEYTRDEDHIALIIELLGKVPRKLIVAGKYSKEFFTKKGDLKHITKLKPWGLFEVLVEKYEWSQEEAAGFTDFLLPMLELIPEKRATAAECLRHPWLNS

The remaining binding of `CNC1C[S+]2CC[S+]3CC[S+](C1)[Ru-4]321([N]=C=S)[n]2c3ccc(OC)cc3c3c4c(c5cc(F)c[n+]1c5c32)C(=O)NC4=O` (centres unmarked) is reported as 100% (KinomeScan; 0.1 µM; baseline: untreated).
With `O=C(Nc1ccccc1)Nc1cccc(O)c1` the inhibition was 15.5% (enzyme activity, inhibitor, FRET; 10 µM).
For `Nc1ncc2c(n1)-c1c([nH]c3ccc(C4=CCOCC4)cc13)CCC2`, the remaining binding was 81% (binding, competition with immobilised ligand; 1 µM).
For `C=CC(=O)Nc1cc(-c2nn(C3CCN(CCNC(=O)[C@H](C)CCC45CC6CC(CC(C6)C4)C5)CC3)c3ncnc(N)c23)ccc1Oc1ccccc1`, the inhibition was 12% (inhibitor, KiNativ profiling; biochemical; 2 µM).
`Cc1ccc(-c2c(/C=C(\C#N)C(=O)NC(C)C)n(CCCO)c3ncnc(N)c23)cc1` gave a remaining binding of 100% (cell-free assay, competition with immobilised ligand; 1 µM).
For `Cc1cccc(-c2ccc3nc(NC(=O)C4CCCO4)nn3c2)c1` (centres unmarked), the remaining activity was 64% (enzyme activity, Dundee kinase panel; 10 µM).
The remaining activity of `COc1ccc(NC(=O)Nc2ccc3c(c2)C(=O)N(C(C)CO)CC(C)C(CN(C)Cc2ccc4c(c2)OCO4)O3)cc1` (centres unmarked) is reported as 100% (kinase activity, KinaseProfiler; 0.03 µM, species human; baseline: control).
For `Cc1cccc(-c2ccc3nc(NC(=O)C4CCCCC4)nn3c2)c1`, the remaining activity was 75% (enzyme activity, Dundee kinase panel; 10 µM).
With `O=C(Nc1cccc(C(F)(F)F)c1)Nc1ccccc1O` the inhibition was 11.6% (enzyme activity, inhibitor, FRET; 10 µM).
`C=CC(=O)N1CCCC(n2c(=O)c3ncccc3n(Cc3ccc(Oc4ccccc4)cc3)c2=O)C1` (centres unmarked) has a remaining binding of 85% (cell-free assay, competition with immobilised ligand; 1 µM).
For `CN(C(=O)N(C)c1ccc(C#N)cc1)c1ccccc1`, the inhibition was 0.7% (enzyme activity, inhibitor, FRET; 10 µM).
With `c1ccc2c(Nc3cc(C4CCC4)[nH]n3)nc(Nc3ccc4nc[nH]c4c3)nc2c1` the remaining activity was 17% (enzyme activity, inhibitor; 0.25 µM).
For `COc1cc(Nc2nc(C)cc(-c3cnn4nc(OC)ccc34)n2)cc(C(F)(F)F)c1`, the remaining binding was 96% (binding, competition with immobilised ligand; 1 µM).
For `C=CC(=O)N1CCc2ccc(-n3c(=O)ccc4cnc5ccc(-c6cnn(C)c6)cc5c43)cc21`, the remaining binding was 100% (KINOMEscan; 1 µM; baseline: DMSO control).
Under “activity vs control”, `O=C(Cc1ccc(OCc2ccccc2)cc1)NC1(C(=O)O)CCN(C(=O)c2ccc(-c3cccc(Cl)c3)cc2)CC1` is recorded as 99% (enzyme activity, inhibitor; 10 µM).
With `N#Cc1ccc(NC(=O)Nc2ccccc2O)cc1` the inhibition was 22.2% (enzyme activity, inhibitor, FRET; 10 µM).
The inhibition of `NC(=O)C[C@H]1CCc2sc3ncnc(O[C@H]4CC[C@H](N5CCOCC5)CC4)c3c21` is reported as 2% (enzyme activity, inhibitor; 10 µM).
With `CNC(=O)C1CCN(c2cc(C)c(F)cc2NC(=O)c2ccc(-c3cc(O)ccc3C)c(C)c2)CC1` the remaining binding was 100% (binding, competition with immobilised ligand; 1 µM).
`COCC12C(=O)NC3C4(C(OC)CC1O)C1CC5(O)C(OC)C(O)C(OC(C)=O)(C1C5OC(=O)c1ccccc1)C3(O)C(OC)C24` (centres unmarked) has a remaining activity of 110% and 116% (kinase activity, inhibitor, ProQinase kinase profiling; 25 µM; baseline: control).
With `CC(C)=CC1OC(C)(C)C2C=C3C(=O)C(Cl)=CC(O)C3C3C(O)C4OC4C(=O)C132` (centres unmarked) the remaining binding was 91% (cell-free assay, competition with immobilised ligand; 10 µM).
The remaining activity of `Nc1nc(Nc2ccccc2)sc1C(=O)c1ccccc1` is reported as 26% (enzyme activity, inhibitor; 10 µM).
For `Cc1cccc(O[C@H]2CCC[C@@H](C(C)CNCc3ccncc3)C2)c1` (relative stereo), the inhibition was 8% (enzyme activity, inhibitor; 10 µM).
The inhibition of `C=CC(=O)Nc1cccc(-c2cnc3[nH]cc(C(=O)NC(C)(C)C)c3n2)c1` is reported as -6% (enzyme activity, inhibitor; 0.1 µM).

Excerpt of the above:
The remaining activity of `Nc1nc(Nc2ccccc2)sc1C(=O)c1ccccc1` is reported as 26% (enzyme activity, inhibitor; 10 µM).
`C=CC(=O)N1CCCC(n2c(=O)c3ncccc3n(Cc3ccc(Oc4ccccc4)cc3)c2=O)C1` (centres unmarked) has a remaining binding of 85% (cell-free assay, competition with immobilised ligand; 1 µM).
The inhibition of `C=CC(=O)Nc1cccc(-c2cnc3[nH]cc(C(=O)NC(C)(C)C)c3n2)c1` is reported as -6% (enzyme activity, inhibitor; 0.1 µM).
